# Results of several laboratories.
# Numbered parts are unrelated; each lists some results of a single study. Substitutions count along the parent as printed.

# Study 1 — technique: protein-binding microarray; form: double-stranded DNA, one strand shown; medium: in vitro; tested at: 250 nM; notes: 60-bp whole probe; with: salmon DNA 0.4 mg/ml; baseline: random background probes; reading: higher = stronger binding; all sequences stand within: GCCTAGCAC … GTCTTGATTCGCTTGACGCTGCTG
# Target: Interferon regulatory factor 7, full length, phosphomimetic (IRF7, Homo sapiens, UniProt Q92985, residues 1-503, S101K/S471D/S472D/S475D/S476D/S477D/S483D/S484D/S487D)
# UniProt Q92985, sequence (whole entry, unmodified, looked up): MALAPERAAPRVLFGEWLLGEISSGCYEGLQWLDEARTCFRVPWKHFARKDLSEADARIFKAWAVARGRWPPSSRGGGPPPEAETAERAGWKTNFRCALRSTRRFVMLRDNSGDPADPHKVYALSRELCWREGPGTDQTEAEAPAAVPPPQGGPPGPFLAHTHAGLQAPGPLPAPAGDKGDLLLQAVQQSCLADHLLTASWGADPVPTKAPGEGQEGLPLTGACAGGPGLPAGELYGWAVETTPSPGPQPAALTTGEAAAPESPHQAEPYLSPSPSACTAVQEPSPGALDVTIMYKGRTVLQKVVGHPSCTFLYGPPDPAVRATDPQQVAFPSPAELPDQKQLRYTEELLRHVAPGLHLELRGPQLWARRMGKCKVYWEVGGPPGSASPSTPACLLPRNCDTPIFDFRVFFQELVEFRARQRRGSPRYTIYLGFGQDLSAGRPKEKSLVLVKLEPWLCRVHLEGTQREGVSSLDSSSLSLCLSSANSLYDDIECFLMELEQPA
Sequence,log fluorescence [z-score]
GATTCTTTCGATGCTAAACGAGTGCTA,1.64
TTAGATTTCGTGTTTCGATTAGTGCTA,5.29
TTTGGTCTCCTTTTCCTTTAGTGCTAG,2.5
TTAGGTATCGGGTTTCCGTTAGTGCTA,3.23
TTAGGTTTCGGTTCCGGTGAGTGCTAG,12.4
GGCTTTTTAATGAATGAAGAGGTGCTA,0.104
TTAGATTTCGCGTATCGATTAGTGCTA,1.08
TTTCTTACATGCATCATAACGTGCTAG,0.954
TCAAAGCTCCTATCTTATACTGTGCTA,-0.0955
GACTGACTGCTTATCCTGACGTGCTAG,-0.276
TTAGGTAGCCTTATCCTTTAGTGCTAG,-0.578
TGATAAATCTTTGTTGGAGGGGTGCTA,-0.419
TCACTTCCCCTCTCTTTCACTGTGCTA,1.24
TTAGGACTGCTTCTCCATTAGTGCTAG,0.919
ATCTTAATAAGGTTTCCAATCGTGCTA,2.49
TTAGCTTTCGGGTTTCGGTTAGTGCTA,6.7
GACGATTTCGGGACTGGGGACGTGCTA,0.385
GAAGGTTCCGGTTTCGGGACGTGCTAG,8.28
TCACATTTGGTTAGCGTACTGTGCTAG,0.725
GACGGACTGCGGACTGGGGACGTGCTA,-0.637
TTAGGACTGCTTATCCATTAGTGCTAG,0.186
CTCACTCTGTCCCTCTGTGAGTGCTAG,0.49
TACTCTACAGGGTTTCACTTTGTGCTA,4
GACGGTTTCGGTTGCGGGACGTGCTAG,8.33
TTAGGTTTCCTTTCCCCTTAGTGCTAG,4.68

# Study 2 — target: CRIPT, C-terminal peptide; technique: DHFR complementation, deep sequencing; medium: yeast; baseline: wild type; reading: higher = weaker binding
# Notes: single substitutions, model-inferred values
# Starting sequence: ERBIN, PDZ domain 1 (human); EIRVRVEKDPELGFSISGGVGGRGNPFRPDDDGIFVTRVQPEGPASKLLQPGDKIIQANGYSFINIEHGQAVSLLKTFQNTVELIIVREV; partner TKNYKQTSV
Substitution,binding free energy change [kcal/mol]
F27E,0.852
I16H,1.79
P29F,0.214
F27P,0.963
N65C,0.081
G18R,1.31
I34K,0.0956
I2A,0.32
T81L,0.0282
R88Q,0.371
E42T,0.00517
I55W,1.39
T81D,0.0803
I64M,0.0475
E67T,-0.0808
Q70C,0.0086
G43Y,0.953
G69F,0.17
N25D,0.657
Q57R,-0.0601
Q40D,0.401
V39A,0.791
K76H,0.661
P44L,0.846

# Study 3 — technique: protein binding microarray; form: double-stranded DNA, one strand shown; medium: in vitro; tested at: not given; baseline: not given; reading: higher = stronger binding
# Target: Histone acetyltransferase KAT6A, winged helix 1, GST fusion (KAT6A, Homo sapiens, UniProt Q92794, residues 1-85)
# Notes: 8-mer, flanks averaged, mean of 2 arrays, mostly near background
# Residues (chain): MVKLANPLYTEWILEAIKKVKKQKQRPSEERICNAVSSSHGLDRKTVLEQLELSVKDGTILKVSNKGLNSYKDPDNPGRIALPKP
Sequence,E-score
GACTCCGC,0.257
ACTTTCAC,-0.0972
CAACTAAC,-0.0119
TAAGAGCA,-0.297
ACTCCAAC,-0.111
CCAACCCC,-0.218
CTTCGGAA,0.145
GCAAGTAA,-0.234
CAAAGACC,-0.0169
CAAGTGAG,-0.109
CATTAGAG,-0.187
CGAACGAC,-0.0838
ACAACCGA,-0.125
AATGTCGG,0.219
ACATCTAC,-0.124
ACGACCCT,-0.189
CTCGAGGC,-0.0501
CTCACCGA,-0.0171
CTCTGTGC,0.05
AATTTGTA,-0.131
CTGTGGGA,-0.17
GTCAACTA,-0.208
CAAACCGG,0.171

# Study 4 — technique: RNA Bind-n-Seq; form: RNA; medium: in vitro; tested at: 365 nM; baseline: no-protein control; reading: higher = stronger binding
# Target: RNA binding protein fox-1 homolog 2, RRM domain, GST-SBP tag (RBFOX2, Homo sapiens, UniProt O43251-10, residues 100-194)
# Notes: natural RNA segment, single round, ends assumed
# Construct (chain): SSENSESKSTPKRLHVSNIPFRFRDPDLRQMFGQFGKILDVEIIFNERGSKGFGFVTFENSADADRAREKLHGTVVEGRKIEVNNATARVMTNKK
Sequence,RBNS enrichment (R)
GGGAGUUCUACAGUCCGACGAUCCUUCUCCCCUCUUGCAUUCAAGAUUAUGAAACUUUGCUAUGGGCCCUGCACUUCCUUUGCUUCCUCCUGUUCACCCUGGUGGUGUACGGAUGAGGCGGGGAGGUGGGACCUGGAAUUCUCGGGUGCCAA,0.347
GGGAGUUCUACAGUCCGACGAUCCUGGGGCAGGUGCAUAGCAGUGCAGUGGGAAGGGACAGAGGAGAUCUUAGAAUUUUGAGGAAAAUCUGGGACUUGAGACCUGGAUUCUAACAGACCAACUGCAUGUGUGUUGGAAUUCUCGGGUGCCAA,9.86
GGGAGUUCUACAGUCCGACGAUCCUCCUGGCCCCACCAGGGAUUUCCCCAUUUCUGUUUGCUGCCUGAAAGCAGGAUGAGGAAGGCCAAGGAGAGUCCUUGCACCCGUGAGCGUCAGGAUGAGGAAAUGACAGUGGAAUUCUCGGGUGCCAA,0.865
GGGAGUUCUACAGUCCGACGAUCUUUACACUGUCUUUAAAAGGCCAAAUAAGGCUGGGCGCAGUGGCUCACACCUGUAAUCCCAACAUUUUGGGAGCCCAAGGCGGCCGGACCACCUGAGGUCGGGAGUUCAAUGGAAUUCUCGGGUGCCAA,0.324
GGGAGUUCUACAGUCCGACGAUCCGAGGGCAAAGAUGCUAAAUCUUGCUUUGCAUUCAGUAAAGUGUCAAGUGAUUAAGUGUGUAUUUGUACCCUAGAUGAUAUGAACCAGCAGUCUUGUUUUGGCAUCAUCCUGGAAUUCUCGGGUGCCAA,1.41
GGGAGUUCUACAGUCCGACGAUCAGAAAAAAAAAGAAUAAAUAAAGGAAGAGGUUUAUAAUUUGCCCUAUAUCUGUACAGAGUAUAUUCGGUAAGUGCACUAUUAAAUGUCUAAGGGAAGAGUCUGGCCUGCUUGGAAUUCUCGGGUGCCAA,1.64
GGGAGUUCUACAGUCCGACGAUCUGUUGGUGGCUCUUAUUUCUGAAUUCAAAGCUUGUGAAAAAAAAUAAAGAAAUUAAAUUGCCCGUUGAUCUGAGUGGGUGUUUUCACUUGGGUUUAUCAACUGCCUGGUCUGGAAUUCUCGGGUGCCAA,1.24
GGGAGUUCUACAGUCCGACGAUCUGUUCUUGAGAUAGACUUUAAAAUGAACCAGCUCUGAAAAGUACUUCUGCUGCUCUGGUCUAUCCCUGAAAACAGAUGUCUUGAAACACUUUUCAUAUUCUUAAAAUAAUUGGAAUUCUCGGGUGCCAA,0.401
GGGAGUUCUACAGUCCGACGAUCAGUGAUUGUAGUUUCAUGUUAAUAUGUGGCAAAAUAUUUUUGUAAUUAUUUUCUAAUCCCUUUCUGAGUACUCUGGGGCCCUGCAUUUAUGAGGCACCUACCUUCAUUUUUGGAAUUCUCGGGUGCCAA,2.4
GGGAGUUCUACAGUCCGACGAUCAAAAUCAGUGAGACAUAAGCCAACAAGAGAAACCAUCUCUGACCACCCCCUCCUCCCCAUCCCACCCUUUGGAAACUCCCCAUUGUCACUGAGAACCACCAAAUCUGACUUGGAAUUCUCGGGUGCCAA,0.662
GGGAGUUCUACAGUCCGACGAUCGAAGAGGCUCCUCUUCUCAGUGUUUCCCAAAGGGGCGGCUCUUGUGGUUUCAAAAUCUCUGGCACCAUCUUGACCUCUUGGCUCUCUCUGCACUUUGCCCCCUGUCUCAAUGGAAUUCUCGGGUGCCAA,0.542
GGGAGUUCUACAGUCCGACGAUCAAAGCAAACAGACUUAAGUUUCCUUGUAUUGAAGAUAACCUAUGACUGUAUGUUUUGCAUUCCUAGAAGCAGGUUAACUGUGUUUUUAAAUUGUUAUAACCACACCUUUUUGGAAUUCUCGGGUGCCAA,0.356

# Study 5 — target: CCND3, cyclin fold, Cln2 fusion (human); technique: yeast growth competition, sequencing; medium: yeast; notes: weak parent motif; baseline: not given; reading: higher = stronger binding
# Starting sequence: CDC6 docking peptide (human); TLKGRRLVFDNQL; partner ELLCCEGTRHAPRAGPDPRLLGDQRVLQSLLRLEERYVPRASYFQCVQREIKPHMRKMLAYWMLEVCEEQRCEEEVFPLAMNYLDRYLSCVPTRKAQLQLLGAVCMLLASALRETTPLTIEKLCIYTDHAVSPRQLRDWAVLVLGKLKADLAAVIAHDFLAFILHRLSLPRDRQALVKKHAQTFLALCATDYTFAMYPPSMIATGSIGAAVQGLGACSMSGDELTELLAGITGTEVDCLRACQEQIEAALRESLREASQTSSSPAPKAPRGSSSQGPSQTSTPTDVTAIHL
Substitution,normalised enrichment score
TLKGRFLVFDNQL [R6F],0.0509
TLKGRALVFDNQL [R6A],0.0552
TLKGRRLVFWNQL [D10W],0.127
TLKGRMLVFDNQL [R6M],0.134
GLKGRRLVFDNQL [T1G],0.183
TLFGRRLVFDNQL [K3F],0.0331
TLKGRRLVFDNDL [Q12D],0.0797
TLWGRRLVFDNQL [K3W],0.0299
TLKIRRLVFDNQL [G4I],0.228
TLYGRRLVFDNQL [K3Y],0.157
TLKGRRLVFLNQL [D10L],0.0328
TLKGRRLVFDLQL [N11L],0.125
TLKGRRAVFDNQL [L7A],0.0863
TLKRRRLVFDNQL [G4R],0.0809
TLKGRRLVFDQQL [N11Q],0.109
TLKGRRLCFDNQL [V8C],0.155
TLHGRRLVFDNQL [K3H],0.0456
TLKMRRLVFDNQL [G4M],0.202
MLKGRRLVFDNQL [T1M],0.0815
YLKGRRLVFDNQL [T1Y],0.0384
TLKGRRLVFDWQL [N11W],0.17
TLKGRRYVFDNQL [L7Y],0.107
TLKGRTLVFDNQL [R6T],0.126
TLKGRRLVFDFQL [N11F],0.176
TLEGRRLVFDNQL [K3E],0.119
